{"data": "Experimental data gathered from unrelated publications", "cell line": "MCF7", "note": "Several values in a cell are separate wells, animals, samples, runs or records. Numbers after ± are the reported error."}
{"Compound": "O=C(Oc1ccc(F)cc1)[c-]1cccc1.[Fe+2].c1cc[cH-]c1", "test": "MTT", "conditions": "72 h", "endpoint": "IC50", "value": "no effect"}
{"Compound": "CC(C)N1CCC(NC2CCN(c3cccc(-c4cc5cc(F)ccc5[nH]4)c3)CC2)CC1", "endpoint": "GI50", "value": "1.39 µM"}
{"Compound": "COc1cccc2c1C(=O)c1c(O)c3c(c(O)c1C2=O)C[C@@](O)(C(=O)CO)C[C@@H]3O[C@H]1C[C@H](N)[C@H](O)[C@H](C)O1", "test": "sulforhodamine B", "conditions": "10 µg/mL, 48 h", "how to read": "negative means cell kill", "endpoint": "growth percent", "value": "-81.3%"}
{"Compound": "COc1cc(CCC[P+](c2ccccc2)(c2ccccc2)c2ccccc2)c(OC)c2c1OCO2.[I-]", "test": "SRB", "endpoint": "GI50", "value": "-5.74 log M"}
{"Compound": "C[C@]12CC[C@H](O)C[C@H]1CC[C@@H]1[C@@H]2CC[C@]2(C)[C@@H](c3ccc(=O)oc3)CC[C@]12O", "test": "RT-qPCR, refers to: GREB1", "conditions": "20 nM, 48 h, unit not given, together with: estradiol", "how to read": "baseline: untreated", "endpoint": "mRNA level", "value": "1.28 and 2.2 and 1.37"}
{"Compound": "Nc1ncc(-c2nc(N3CCOCC3)nc(N3CCOCC3)n2)c(C(F)F)n1", "conditions": "72 h", "endpoint": "GI50", "value": "0.022 µM"}
{"Compound": "O=C1CCCCC1=C1Sc2nc3ccc(S(=O)(=O)N4CCCC4)cc3nc2S1", "test": "RT-qPCR, refers to: Bax", "conditions": "concentration not given", "how to read": "baseline: untreated", "endpoint": "mRNA level", "value": "3.79 fold"}
{"Compound": "CC(=NNC(=O)c1cccc(C)c1)c1ccc(NC(=O)Cn2c(=O)c3c(ncn3C)n(C)c2=O)cc1", "test": "qRT-PCR, refers to: TNF-alpha", "conditions": "4.85 µM, 24 h", "how to read": "baseline: untreated", "endpoint": "mRNA level", "value": "0.672 fold change"}
{"Compound": "Oc1cc(O)cc(-c2cc3ccc(O)cc3o2)c1", "test": "cell growth, MTT", "conditions": "25 µg/mL, 48 h", "endpoint": "cell survival", "value": "67.48 ± 0.61%"}
{"Compound": "C#Cc1cccc(Nc2ncnc3cc(OCCOC)c(OCCOC)cc23)c1", "test": "MTT", "endpoint": "sublethal dose", "value": "5 µM"}
{"Compound": "COc1c(CCC[P+](c2ccccc2)(c2ccccc2)c2ccccc2)cc2c(c1OC)OCO2.[I-]", "test": "SRB", "endpoint": "LC50", "value": "-4.06 log M"}
{"Compound": "COc1cc(O)ccc1C(C)=O", "conditions": "72 h", "endpoint": "IC50", "value": "64 to 200 µM"}
{"Compound": "COc1ccc(-n2nc(C(C)=O)s/c2=N\\N=C(/C)c2ccc(NC(C)=O)cc2)cc1", "conditions": "0.156 µM", "endpoint": "toxicity", "value": "80.7%"}
{"Compound": "N.N.[Cl][Pt][Cl]", "test": "cell viability", "conditions": "48 h, light irradiation 2.5 min", "endpoint": "IC50", "value": "23.4 ± 0.58 µM"}
{"Compound": "CC(C)=CCc1c(O)cc(O)cc1-c1cc2ccc(O)c(CC=C(C)C)c2o1", "test": "cell growth, MTT", "conditions": "50 µg/mL, 48 h", "endpoint": "cell survival", "value": "54.37 ± 0.41%"}
{"Compound": "N#Cc1c[nH]cc1-c1cccc2c1OC(F)(F)O2", "test": "qRT-PCR", "conditions": "concentration not given, 4 h", "endpoint": "basal RARβ2 mRNA level", "value": "decreased"}
{"Compound": "C[C@H]1[C@H](C)CC[C@]2(C(=O)O)CC[C@]3(C)C(=CC[C@@H]4[C@@]5(C)CC[C@H](O)C(C)(C)[C@@H]5CC[C@]43C)[C@H]12", "test": "cell growth, MTT", "conditions": "25 µg/mL, 48 h", "endpoint": "cell survival", "value": "54.97 ± 0.2%"}
{"Compound": "C/C1=C/C(=O)O[C@@H]2C[C@@H](CC[C@H](C)/C=C\\C=C\\CC1)O[C@@](OCCc1ccccc1)([C@@H]1CSC(=O)N1)C2", "conditions": "concentration not given", "how to read": "baseline: 1", "endpoint": "antiproliferative activity fold increase", "value": "4.8 fold"}
